{"data": "Experimental data of several laboratories", "technique": "steady-state kinetics", "B1": "ALDH4A1 S352A (Homo sapiens, UniProt P30038); chain TGAGLRWKHTSSLKVANEPVLAFTQGSPERDALQKALKDLKGRMEAIPCVVGDEEVWTSDVQYQVSPFNHGHKVAKFCYADKSLLNKAIEAALAARKEWDLKPIADRAQIFLKAADMLSGPRRAEILAKTMVGQGKTVIQAEIDAAAELIDFFRFNAKYAVELEGQQPISVPPSTNSTVYRGLEGFVAAISPFNFTAIGGNLAGAPALMGNVVLWKPSDTAMLASYAVYRILREAGLPPNIIQFVPADGPLFGDTVTSSEHLCGINFTGSVPTFKHLWKQVAQNLDRFHTFPRLAGECGGKNFHFVHRSADVESVVSGTLRSAFEYGGQKCSACARLYVPHSLWPQIKGRLLEEHSRIKVGDPAEDFGTFFSAVIDAKSFARIKKWLEHARSSPSLTILAGGKCDDSVGYFVEPCIVESKDPQEPIMKEEIFGPVLSVYVYPDDKYKETLQLVDSTTSYGLTGAVFSQDKDVVQEATKVLRNAAGNFYINDKSTGSIVGQQPFGGARASGTNDKPGGPHYILRWTSPQVIKETHKPLGDWSYAYMQ", "B2": "HS3ST1 (Mus musculus, UniProt O35310); chain GTASNGSTQQLPQTIIIGVRKGGTRALLEMLSLHPDVAAAENEVHFFDWEEHYSQGLGWYLTQMPFSSPHQLTVEKTPAYFTSPKVPERIHSMNPTIRLLLILRDPSERVLSDYTQVLYNHLQKHKPYPPIEDLLMRDGRLNLDYKALNRSLYHAHMLNWLRFFPLGHIHIVDGDRLIRDPFPEIQKVERFLKLSPQINASNFYFNKTKGFYCLRDSGKDRCLHESKGRAHPQVDPKLLDKLHEYFHEPNKKFFKLVGRTFDWH", "B3": "moaA (Staphylococcus aureus, UniProt P69848); chain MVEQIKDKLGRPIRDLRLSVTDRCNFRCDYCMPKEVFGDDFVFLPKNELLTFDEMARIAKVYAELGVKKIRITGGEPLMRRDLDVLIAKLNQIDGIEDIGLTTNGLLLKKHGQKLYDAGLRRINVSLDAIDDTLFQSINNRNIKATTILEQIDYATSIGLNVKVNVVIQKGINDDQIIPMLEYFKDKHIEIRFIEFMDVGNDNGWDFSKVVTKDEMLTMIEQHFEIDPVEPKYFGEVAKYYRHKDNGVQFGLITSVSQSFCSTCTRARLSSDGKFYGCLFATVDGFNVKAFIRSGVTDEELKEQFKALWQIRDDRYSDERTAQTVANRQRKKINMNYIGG", "B4": "protein Y93C (Thermus thermophilus, UniProt Q5SKR5); chain MSAPKPFVIGIAGGTASGKTTLAQALARTLGERVALLPMDHYYKDLGHLPLEERLRVNYDHPDAFDLALYLEHAQALLRGLPVEMPVYDFRACTRSPRRTPVRPAPVVILEGILVLYPKELRDLMDLKVFVDADADERFIRRLKRDVLERGRSLEGVVAQYLEQVKPMHLHFVEPTKRYADVIVPRGGQNPVALEMLAAKALARLARMGAA", "B5": "UGT3A2 Y474C (Homo sapiens, UniProt Q3SY77); chain AKILTISTVGGSHYLLMDRVSQILQDHGHNVTMLNHKRGPFMPDFKKEEKSYQVISWLAPEDHQREFKKSFDFFLEETLGGRGKFENLLNVLEYLALQCSHFLNRKDIMDSLKNENFDMVIVETFDYCPFLIAEKLGKPFVAILSTSFGSLEFGLPIPLSYVPVFRSLLTDHMDFWGRVKNFLMFFSFCRRQQHMQSTFDNTIKEHFTEGSRPVLSHLLLKAELWFINSDFAFDFARPLLPNTVYVGGLMEKPIKPVPQDLENFIAKFGDSGFVLVTLGSMVNTCQNPEIFKEMNNAFAHLPQGVIWKCQCSHWPKDVHLAANVKIVDWLPQSDLLAHPSIRLFVTHGGQNSIMEAIQHGVPMVGIPLFGDQPENMVRVEAKKFGVSIQLKKLKAETLALKMKQIMEDKRYKSAAVAASVILRSHPLSPTQRLVGWIDHVLQTGGATHLKPCVFQQPWHEQYLLDVFVFLLGLTLGTLWLCGKLLGMAVWWLRGARKVKET", "B6": "CMBL (Homo sapiens, UniProt Q96DG6); chain MANEAYPCPCDIGHRLEYGGLGREVQVEHIKAYVTKSPVDAGKAVIVIQDIFGWQLPNTRYIADMISGNGYTTIVPDFFVGQEPWDPSGDWSIFPEWLKTRNAQKIDREISAILKYLKQQCHAQKIGIVGFCWGGTAVHHLMMKYSEFRAGVSVYGIVKDSEDIYNLKNPTLFIFAENDVVIPLKDVSLLTQKLKEHCKVEYQIKTFSGQTHGFVHRKREDCSPADKPYIDEARRNLIEWLNKYM", "B7": "ycjS (Escherichia coli, UniProt P77503); chain MKSAMTSSPLRVAIIGAGQVADKVHASYYCTRNDLELVAVCDSRLSQAQALAEKYGNASVWDDPQAMLLAVKPDVVSVCSPNRFHYEHTLMALEAGCHVMCEKPPAMTPEQAREMCDTARKLGKVLAYDFHHRFALDTQQLREQVTNGVLGEIYVTTARALRRCGVPGWGVFTNKELQGGGPLIDIGIHMLDAAMYVLGFPAVKSVNAHSFQKIGTQKSCGQFGEWDPATYSVEDSLFGTIEFHNGGILWLETSFALNIREQSIMNVSFCGDKAGATLFPAHIYTDNNGELMTLMQREIADDNRHLRSMEAFINHVQGKPVMIADAEQGYIIQQLVAALYQSAETGTRVEL", "B8": "enzyme A178R/D177A/M179S/P184R (Levilactobacillus brevis, UniProt Q03Q85); chain MKVTVVGCTHAGTFAIKQILAEHPDAEVTVYERNDVISFLSCGIALYLGGKVADPQGLFYSSPEELQKLGANVQMNHNVLAIDPDQKTVTVEDLTNHAQTTESYDKLVMTSGSWPIVPKIPGIDSDRVKLCKNWAHAQALIEDAKEAKRITVIGAGYIGAELAEAYSTTGHDVTLIARSARVMRKYFDADFTDVIEQDYRDHGVQLALGETVESFTDSATGLTIKTDKNSYETDLAILCIGFRPNTDLLKGKVDMAPNGAIITDDYMRSSNPDIFAAGDSAAVHYNPTHQNAYIPLATNAVRQGILVGKNLVKPTVKYMGTQSSSGLALYDRTIVSTGLTLAAAKQQGLNAEQVIVEDNYRPEFMPSTEPVLMSLVFDPDTHRILGGALMSKYDVSQSANTLSVCIQNENTIDDLAMVDMLFQPNFDRPFNYLNILAQAAQAKVAQSVNA", "B9": "enzyme (Arabidopsis thaliana, UniProt Q9LTH2); chain MEEKQVKETRIVLVPVPAQGHVTPMMQLGKALHSKGFSITVVLTQSNRVSSSKDFSDFHFLTIPGSLTESDLQNLGPQKFVLKLNQICEASFKQCIGQLLHEQCNNDIACVVYDEYMYFSHAAVKEFQLPSVVFSTTSATAFVCRSVLSRVNAESFLIDMKDPETQDKVFPGLHPLRYKDLPTSVFGPIESTLKVYSETVNTRTASAVIINSASCLESSSLARLQQQLQVPVYPIGPLHITASAPSSLLEEDRSCVEWLNKQKSNSVIYISLGSLALMDTKDMLEMAWGLSNSNQPFLWVVRPGSIPGSEWTESLPEEFNRLVSERGYIVKWAPQMEVLRHPAVGGFWSHCGWNSTVESIGEGVPMICRPFTGDQKVNARYLERVWRIGVQLEGDLDKETVERAVEWLLVDEEGAEMRKRAIDLKEKIETSVRSGGSSCSSLDDFVNSM", "B10": "tsaM1 (Comamonas testosteroni, UniProt P94679); chain MFIRNCWYVAAWDTEIPAEGLFHRTLLNEPVLLYRDTQGRVVALENRCCHRSAPLHIGRQEGDCVRCLYHGLKFNPSGACVEIPGQEQIPPKTCIKSYPVVERNRLVWIWMGDPARANPDDIVDYFWHDSPEWRMKPGYIHYQANYKLIVDNLLDFTHLAWVHPTTLGTDSAASLKPVIERDTTGTGKLTITRWYLNDDMSNLHKGVAKFEGKADRWQIYQWSPPALLRMDTGSAPTGTGAPEGRRVPEAVQFRHTSIQTPETETTSHYWFCQARNFDLDDEALTEKIYQGVVVAFEEDRTMIEAHEKILSQVPDRPMVPIAADAGLNQGRWLLDRLLKAENGGTAP", "B11": "enzyme (Triticum aestivum, UniProt A0A6J4BJN3); chain MPATENAAGEAWDRRRELQAFDDTKAGVKGLVDAGVTALPPIFRHSPESLEGITSSNHDAAAIPTVDLSAARREDTVALVRRAAATVGFFQVVNHGVPAELMAGMLEAVRRFNEGPAEAKQAIYSRDQARKVRFASNFDLFSSAAANWRDTLFFHLAPDPAPSQDLPEAVRDVVTEYGKAVTKVALSVLELLSESLGLSSDHLRDMGCAENLNAVCQYYPPCPEPYLTWGTKRHTDPGFLTVLLQDGMGGLQVLVDRKTWVDVPPVPGAFIINIGDLLQLVSNDQFRSVEHRVLANKSKDTARVSVASFFNTDMERSTRLYGPITDGRNPPIYRSVTARDFIATFNRIGLDGRSLDHYRLDQDTPAHAVEGSE"}
{"Substance": "protein (UniProt M4ZR24)", "substrate": "NC[C@H]1O[C@@H](n2ccc(=O)[nH]c2=O)[C@H](O)[C@@H]1O", "setting": "phosphorolysis, single substrate, added: phosphate", "Km": "820 µM"}
{"Substance": "B1 (ALDH4A1 S352A)", "substrate": "O=C(O)[C@@H]1CCC=N1", "setting": "pH 7, 20 °C, value for L-P5C, added: NAD+", "Km": "51 µM"}
{"Substance": "B2 (HS3ST1)", "substrate": "Nc1ncnc2c1ncn2[C@@H]1O[C@H](COP(=O)(O)OS(=O)(=O)O)[C@@H](OP(=O)(O)O)[C@H]1O", "setting": "pH 7, 37 °C", "Km": "13.5 µM"}
{"Substance": "B3 (moaA)", "substrate": "C[S+](CC[C@H](N)C(=O)O)C[C@H]1O[C@@H](n2cnc3c(N)ncnc32)[C@H](O)[C@@H]1O", "setting": "pH 7.6, 25 °C, added: GTP, dithionite, MgCl2 1 mM", "Km": "4.1 µM"}
{"Substance": "enzyme (Limosilactobacillus reuteri, UniProt Q5SBN3)", "substrate": "OC[C@H]1O[C@@](CO)(O[C@H]2O[C@H](CO)[C@@H](O)[C@H](O)[C@H]2O)[C@@H](O)[C@@H]1O", "setting": "pH 4.7, 37 °C", "Km": "2700 µM"}
{"Substance": "ddh (Ureibacillus thermosphaericus, UniProt G1UII1)", "substrate": "O=C(O)C(=O)Cc1ccccc1", "setting": "pH 9, 30 °C, reductive amination, added: NH4Cl 200 mM, NADPH 0.5 mM", "Km": "3070 µM"}
{"Substance": "B4 (protein Y93C)", "substrate": "Nc1ccn([C@@H]2O[C@H](CO)[C@@H](O)[C@H]2O)c(=O)n1", "setting": "pH 7.2, 25 °C, KCl 100 mM, added: ATP 100–200 µM", "Km": "215 µM"}
{"Substance": "B5 (UGT3A2 Y474C)", "substrate": "O=c1ccn([C@@H]2O[C@H](CO[P@@](=O)(O)O[P@@](=O)(O)O[C@H]3O[C@H](CO)[C@@H](O)[C@H](O)[C@H]3O)[C@@H](O)[C@H]2O)c(=O)[nH]1", "setting": "pH 7.4, 37 °C, not purified, added: 1-OH-pyrene 16 µM, MgCl2 10 mM, alamethicin", "Km": "3130 µM"}
{"Substance": "B6 (CMBL)", "substrate": "CCCc1nc(C(C)(C)O)c(C(=O)OCc2oc(=O)oc2C)n1Cc1ccc(-c2ccccc2-c2nnn[nH]2)cc1", "setting": "pH 7.4, 37 °C, wild type, E. coli expressed", "Km": "116 µM"}
{"Substance": "B7 (ycjS)", "substrate": "CO[C@H]1O[C@H](CO)[C@@H](O)C(=O)[C@H]1O", "setting": "pH 7, 30 °C, added: NADH 0.3 mM", "Km": "950 µM"}
{"Substance": "B8 (enzyme A178R/D177A/M179S/P184R)", "substrate": "NC(=O)C1=CN([C@@H]2O[C@H](COP(=O)(O)OP(=O)(O)OC[C@H]3O[C@@H](n4cnc5c(N)ncnc54)[C@H](O)[C@@H]3O)[C@@H](O)[C@H]2O)C=CC1", "setting": "pH 7.5, 37 °C", "Km": "18 µM"}
{"Substance": "B9 (enzyme)", "substrate": "O=c1ccn([C@@H]2O[C@H](CO[P@@](=O)(O)O[P@@](=O)(O)O[C@H]3O[C@H](CO)[C@@H](O)[C@H](O)[C@H]3O)[C@@H](O)[C@H]2O)c(=O)[nH]1", "setting": "pH 7.5, 25 °C", "Km": "8.75 µM"}
{"Substance": "ERCC6 (Homo sapiens, UniProt Q03468)", "substrate": "Nc1ncnc2c1ncn2[C@@H]1O[C@H](COP(=O)(O)OP(=O)(O)OP(=O)(O)O)[C@@H](O)[C@H]1O", "setting": "pH 8, 30 °C, added: Mg2+, pUC19 DNA", "Km": "16.5 µM"}
{"Substance": "enzyme (Pseudomonas aeruginosa, UniProt Q9HXU0)", "substrate": "NCCCC[C@H](N)C(=O)O", "setting": "pH 7.5, 37 °C", "Km": "45.3 µM"}
{"Substance": "B10 (tsaM1)", "substrate": "COc1cc(C(=O)O)ccc1O", "setting": "apparent, added: NADH 1 mM", "Km": "182 µM"}
{"Substance": "B11 (enzyme)", "substrate": "O=C1[C@@H](O[C@@H]2O[C@H](CO)[C@@H](O)[C@H](O)[C@H]2O)Oc2ccccc2N1O", "setting": "pH 7.2, 30 °C", "Km": "104 µM"}
{"Substance": "enzyme (Saccharomyces cerevisiae, UniProt P38361)", "substrate": "O=P(O)(O)O", "setting": "25 °C, apparent", "Km": "64.1 µM"}
